Measured values of several laboratories.
Each line is one published result; not all experiments were run side by side. Converted amounts (≈) assume the structure as drawn.
TDP1: Tyrosyl-DNA phosphodiesterase 1 (TDP1, Homo sapiens, UniProt Q9NUW8)
Sequence of UniProt Q9NUW8 (whole entry, looked up): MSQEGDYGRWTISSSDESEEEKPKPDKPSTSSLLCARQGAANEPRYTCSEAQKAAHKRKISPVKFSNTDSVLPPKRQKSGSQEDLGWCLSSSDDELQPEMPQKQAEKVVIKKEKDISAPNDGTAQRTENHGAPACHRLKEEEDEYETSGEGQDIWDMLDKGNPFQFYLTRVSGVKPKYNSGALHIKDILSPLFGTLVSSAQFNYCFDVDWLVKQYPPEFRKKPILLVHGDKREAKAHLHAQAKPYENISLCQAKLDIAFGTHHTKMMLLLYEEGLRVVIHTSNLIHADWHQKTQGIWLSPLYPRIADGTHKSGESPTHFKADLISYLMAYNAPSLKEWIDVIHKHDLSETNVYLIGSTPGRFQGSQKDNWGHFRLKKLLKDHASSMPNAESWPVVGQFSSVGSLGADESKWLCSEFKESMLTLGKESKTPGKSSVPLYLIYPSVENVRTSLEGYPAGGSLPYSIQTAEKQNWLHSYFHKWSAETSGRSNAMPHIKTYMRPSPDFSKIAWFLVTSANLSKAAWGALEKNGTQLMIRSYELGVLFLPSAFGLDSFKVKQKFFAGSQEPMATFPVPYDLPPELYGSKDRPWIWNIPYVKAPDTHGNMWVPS

`COC1CN([C@H]2CC[C@H]([C@@]3(C)Oc4c(Cl)cc(C(=O)NCc5c(SC)cc(C)[nH]c5=O)c(C)c4O3)CC2)C1`: “log2 fold change” 1.3 (RNA-seq, refers to: LAMA5; human, whole blood; dose not given, 24 h; baseline: pretreatment baseline).
For `Nc1ncc(-c2cc(-c3cnn(CC(F)(F)F)c3)ncc2F)nc1C(=O)NC1CNCC(F)C1` (centres unmarked), the remaining binding was 43% (FLT1; KINOMEscan; 1 µM; baseline: DMSO control).
The inhibition of `O=C(O)c1ccc(Nc2c(-c3ccc(CON=Cc4ccc(OC(=O)c5ccc6c(c5)OCO6)cc4)cc3)nc3cc(-c4ccccc4)ccn23)cc1` (mixture of isomers) is reported as 72.7% (TDP1; enzyme activity, inhibitor; 100 µM, unpurified compound).
For `Cn1ncc2cc(-c3cncc(Cl)c3N3CCC4(CCNC4=O)CC3)ccc21`, “log2 fold change” read 1.78 (LS174T; gene expression, microarray, refers to: TFF1 mRNA; concentration not given, 4 h; baseline: untreated cells).
With `O=C(O)c1ccc(Nc2c(-c3ccccc3)nc3ccc(CON=CC4(c5ccccc5Cl)CCOCC4)cn23)cc1` the inhibition was 14% (TDP1; enzyme activity, inhibitor; 100 µM, unpurified compound).
The IC50 of `CNS(=O)(=O)Nc1nccc(Cc2c(C)c3ccc(Oc4ncccc4F)cc3oc2=O)c1F` is reported as over 1 µM (PLC/PRF/5; cell viability, CellTiter-Glo; 7 days).
For `Cc1ncsc1-c1ccc(C(C)NC(=O)C2CC(O)CN2C(=O)C(NC(=O)CCCCCCCCCCN2CCCC(Nc3ncc(Cl)c(Nc4ccccc4S(=O)(=O)C(C)C)n3)C2)C(C)(C)C)cc1` (centres unmarked), “log2 fold change” read -1.46 (22Rv1; RNA-seq, refers to: UBA6-AS1; concentration not given; baseline: DMSO).
`CN1CCCNC(=O)c2cccc(c2)C(=O)NCCCN(C)CCCNc2cccc3c2C(=O)c2cccc(c2C3=O)NCCC1`: “log2 fold change” 0.543 (SAS; RNA-Seq, refers to: CEBPB mRNA; 1 µM, 6 h; baseline: untreated cells).
`C=CC(=O)N1[C@@H](c2ccc3c(c2)OCO3)c2[nH]c3ccccc3c2C[C@H]1C(=O)N1CCN(C)CC1`: “log2 fold change” 0.0566 (CCNE1 WT-3xFLAG:CDK2 complex; co-IP TMT proteomics, refers to: CCP110; HEK-293T; 20 µM, 6 h; baseline: DMSO).
`C=CC(=O)Nc1cccc(Cn2ncc3cnc(Nc4cnn(CCOC)c4)nc32)c1`: “percent of control” 84% (HIPK2 human; binding, KINOMEscan; 100 nM; lower = stronger binding).
The MIC50 of `C=C(NC(=O)c1csc(-c2nc3c(cc2O)-c2nc(cs2)C(=O)NC(C(C)O)C(=O)NC(=C(C)OC)c2nc(cs2)C(=O)NC2c4nc(cs4)C(=O)NC(COC(=O)c4c5c6c(cccc6n4O)COC(=O)C(OC4CC(C)(O)C(N(C)C)C(C)O4)C2OC5)c2nc-3cs2)n1)C(N)=O` (centres unmarked) is reported as 7.8 ng/mL (≈ 5.43 nM) (Streptococcus pneumoniae; penicillin-resistant, 10 isolates; serum 50%).

A few entries again:
The inhibition of `O=C(O)c1ccc(Nc2c(-c3ccc(CON=Cc4ccc(OC(=O)c5ccc6c(c5)OCO6)cc4)cc3)nc3cc(-c4ccccc4)ccn23)cc1` (mixture of isomers) is reported as 72.7% (TDP1; enzyme activity, inhibitor; 100 µM, unpurified compound).
